Published values of several laboratories.
Lines come from different studies, so protocols differ. Values joined by “and” are separate records of one study, mostly repeats; a detail may differ. Numbers after ± are the reported error.
Organism: Schistosoma mansoni

Structure (SMILES) = CC1=C(Cn2cc(CN)nn2)C(=O)c2ccccc2C1=O; test system = adult worms; conditions = 25 µM, 48 h; endpoint = killing; result = 50%
Structure (SMILES) = COc1ccc(Nc2cnnc3ccc(-c4cnc(N5CCN(C)CC5)nc4)cc23)cc1; test system = adult worms; conditions = 10 µM, 48 h; scale = direction not given; endpoint = phenotypic severity score; result = 1
Structure (SMILES) = CC1(CNc2nc(-c3cccs3)nc(Cl)c2-c2c(F)cc(O)cc2F)COC1; test = worm motility; test system = adult worms ex vivo; conditions = 24 h; endpoint = EC50; result = < 300 nM
Structure (SMILES) = O=C(C1CCC(F)(F)CC1)N1CC(=O)N2CCc3ccccc3[C@@H]2C1; test system = adult worms; conditions = 4 h; endpoint = EC50; result = 2000 nM
Structure (SMILES) = CC1=C(Cc2cn(CCN3CCOCC3)nn2)C(=O)c2ccccc2C1=O; test system = adult worms; conditions = 25 µM, 24 h; endpoint = killing; result = 40.3%
Structure (SMILES) = O=C(C1CCCCC1)N1CC(=O)N2CCc3ccccc3C2C1 (stereo not drawn); test system = mice; conditions = 100 mg/kg daily x4, dosed day 7, perfused 49; endpoint = female worms recovered; result = 5 worms per mouse and 8 worms per mouse and 11 worms per mouse and 7 worms per mouse
Structure (SMILES) = COc1ccc(Nc2cnnc3ccc(-c4ccc(S(=O)(=O)N5CCN(C)CC5)cc4)cc23)cc1; test system = adult worms; conditions = 10 µM, 48 h; scale = direction not given; endpoint = phenotypic severity score; result = 0
Structure (SMILES) = Fc1cc(F)c(-c2c(Cl)nc(-c3cccs3)nc2N2CCOC2)c(F)c1; test = worm motility; test system = adult worms ex vivo; conditions = 24 h; endpoint = EC50; result = > 5000 nM
Structure (SMILES) = CC1=C(Cn2cnc([N+](=O)[O-])n2)C(=O)c2ccccc2C1=O; test system = adult worms; conditions = 10 µM, 24 h; endpoint = killing; result = 38%
Structure (SMILES) = CC(C)C(=O)Nc1nc(-c2cccs2)nc(Cl)c1-c1c(F)cc(F)cc1F; test = worm motility; test system = adult worms ex vivo; conditions = 24 h; endpoint = EC50; result = > 5000 nM
Structure (SMILES) = CC1(C(F)F)NC(=O)N(c2ccc(F)c(C(F)(F)F)c2)C1=O (stereo not drawn); test system = juvenile, infected mice; conditions = oral, 100 mg/kg single dose; endpoint = worm burden reduction; result = 62 to 100% and 62%
Structure (SMILES) = Fc1cc(F)c(-c2c(Cl)nc(-c3cccs3)nc2NC2CC2)c(F)c1; test = worm motility; test system = adult worms ex vivo; conditions = 24 h; endpoint = EC50; result = > 5000 nM
Structure (SMILES) = CC1=C(Cc2cn(CCOS(=O)(=O)c3ccc(C)cc3)nn2)C(=O)c2ccccc2C1=O; test system = adult worms; conditions = 25 µM, 72 h; endpoint = killing; result = 48%
Structure (SMILES) = CC1(C)NC(=O)N(c2ccc(F)c(S(C)(=O)=O)c2)C1=O; test system = NMRI mice, infected; conditions = oral, 100 mg/kg single dose, 21 days post-treatment, treated day 49 post-infection; endpoint = worm burden reduction; result = 0%
Structure (SMILES) = CN1CCN(c2ncc(-c3ccc4nncc(Nc5cnccn5)c4c3)cn2)CC1; test system = adult worms; conditions = 10 µM, 24 h; scale = direction not given; endpoint = phenotypic severity score; result = 0
Structure (SMILES) = CC1=C(Cn2cc(CN3CCN(C(=O)OC(C)(C)C)CC3)nn2)C(=O)c2ccccc2C1=O; test system = adult worms; conditions = 25 µM, 48 h; endpoint = killing; result = 45.5%
Structure (SMILES) = CC1(C)NC(=O)N(c2ccc(F)c(C(C)(F)F)c2)C1=O; test system = adult, infected NMRI mice; conditions = oral, 100 mg/kg single dose; endpoint = worm burden reduction; result = 98%
Structure (SMILES) = CC1(CNc2nc(-c3cccs3)nc(Cl)c2-c2c(F)cc(N)cc2F)COC1; test system = juvenile; conditions = 1.2 µM, 2 h pulse then washout, 9-day incubation; scale = baseline: DMSO control; endpoint = motility; result = < 25%
Structure (SMILES) = CC1=C(Cc2cn(CCO)nn2)C(=O)c2ccccc2C1=O; test system = adult worms; conditions = 10 µM, 48 h; endpoint = killing; result = 51%
Structure (SMILES) = CC(C)(C)CNc1nc(-c2cccs2)nc(Cl)c1-c1c(F)cc(F)cc1F; test = worm motility; test system = adult worms ex vivo; conditions = 24 h; endpoint = EC50; result = < 300 nM
Structure (SMILES) = CC1(C)NC(=O)N(c2ccc(F)c(C(F)(F)F)c2F)C1=O; test system = adult, infected mice; conditions = oral, 50 mg/kg single dose; endpoint = worm burden reduction; result = 65%
Structure (SMILES) = COc1ccc(Nc2cnnc3cc(-c4cnc(N5CCCN(C)CC5)nc4)ccc23)cc1; test system = adult worms; conditions = 10 µM, 48 h; scale = direction not given; endpoint = phenotypic severity score; result = 4
Structure (SMILES) = CC1(C)NC(=O)N(c2ccc3c(c2)OC(F)(F)O3)C1=O; test system = NMRI mice, infected; conditions = oral, 100 mg/kg single dose, 21 days post-treatment, treated day 49 post-infection; endpoint = worm burden reduction; result = 10%
Structure (SMILES) = CN1CCN(c2ccc(-c3ccc4c(Nc5ncccn5)cnnc4c3)cc2)CC1; test system = adult worms; conditions = 10 µM, 24 h; scale = direction not given; endpoint = phenotypic severity score; result = 0
Structure (SMILES) = CC(C)(C)CNc1nc(-c2cccs2)nc(Cl)c1-c1c(F)cc(N)cc1F; test = worm motility; test system = adult worms ex vivo; conditions = 24 h; endpoint = EC50; result = < 300 nM
Structure (SMILES) = O=C(C1CCCCC1)N1CC(=O)N2CCc3ccccc3C2C1 (racemic); test system = infected mice; conditions = intraperitoneal, 50 mg/kg 1 times daily for 3 days, dosed 7 weeks post-infection; endpoint = worm burden; result = 18 ± 11 worms
Structure (SMILES) = CN1CCN(S(=O)(=O)c2ccc(-c3ccc4nncc(Nc5cnccn5)c4c3)cc2)CC1; test system = adult worms; conditions = 10 µM, 48 h; scale = direction not given; endpoint = phenotypic severity score; result = 0
Structure (SMILES) = CCC(F)(F)c1cc(N2C(=O)NC(C)(C)C2=O)ccc1F; test system = NMRI mice, infected; conditions = oral, 100 mg/kg single dose, 21 days post-treatment, treated day 49 post-infection; endpoint = worm burden reduction; result = 26%
Structure (SMILES) = COc1ccc(Nc2cnnc3ccc(-c4cnc(N5CCCN(C)CC5)nc4)cc23)cc1; test system = adult worms; conditions = 10 µM, 1 h; scale = direction not given; endpoint = phenotypic severity score; result = 0
Structure (SMILES) = O=C1c2ccccc2C23C(=O)Nc4ccccc4C2(O)CCN13 (stereo not drawn); test system = adult worms; conditions = ex vivo; endpoint = IC50; result = 13000 nM
Structure (SMILES) = N#Cc1cc(F)c(-c2c(Cl)nc(-c3cccs3)nc2NCC2CCC2)c(F)c1; test = motility; test system = adult worms, ex vivo; conditions = 24 h; endpoint = EC50; result = 280 nM
Structure (SMILES) = O=C(C1CCCCC1)N1CC(=O)N2CCc3ccccc3C2C1 (stereo not drawn); test system = NSG mouse; conditions = oral, 400 mg/kg single dose; endpoint = worm burden reduction; result = 83%
Structure (SMILES) = CC1=C(Cn2cc(COC3COC3)nn2)C(=O)c2ccccc2C1=O; test system = NTS; scale = baseline: L6 CC50 over IC50; endpoint = selectivity index; result = 6.6
Structure (SMILES) = CC1(C(F)(F)F)NC(=O)N(c2ccc(F)c(C(F)(F)F)c2)C1=O (stereo not drawn); test system = NMRI mice, infected; conditions = oral, 100 mg/kg single dose, 21 days post-treatment, treated day 49 post-infection; endpoint = worm burden reduction; result = 100%
Structure (SMILES) = CC1=C(Cn2cncn2)C(=O)c2ccccc2C1=O; test system = adult worms; conditions = 25 µM, 72 h; endpoint = killing; result = 54.6%
Structure (SMILES) = CN1CCN(c2ccc(-c3ccc4c(Nc5cnccn5)cnnc4c3)cc2)CC1; test system = adult worms; conditions = 10 µM, 24 h; scale = direction not given; endpoint = phenotypic severity score; result = 0
